Results of several laboratories.
A part holds a random share of what one study measured.

Sample 1 — technique: protein binding microarray; molecule type: double-stranded DNA, one strand shown; matrix: in vitro; tested at: not given; reference: not given; direction: higher = stronger binding
Target: Histone acetyltransferase KAT6A, winged helix 1, GST fusion (KAT6A, Homo sapiens, UniProt Q92794, residues 1-85)
Setting: 8-mer, flanks averaged, mean of 2 arrays, mostly near background
Residues (chain): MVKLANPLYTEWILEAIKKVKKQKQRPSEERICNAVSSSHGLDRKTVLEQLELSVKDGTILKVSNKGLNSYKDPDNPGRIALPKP
| Strand | E-score |
| --- | --- |
| ACTCATAT | -0.106 |
| GGCGGCAC | 0.377 |
| CAATACAA | -0.143 |
| GGAGAGAA | -0.159 |
| CCGCACCC | 0.267 |
| CCAGCCTC | -0.258 |

Sample 2 — technique: RNA Bind-n-Seq; molecule type: RNA; matrix: in vitro; tested at: not given; reference: input RNA pool; direction: higher = stronger binding
Target: RING finger protein unkempt homolog, zinc fingers 1-6, GST-SBP tag (UNK, Homo sapiens, UniProt Q9C0B0, residues 30-357)
Sequence of UniProt Q9C0B0 (30-357, looked up): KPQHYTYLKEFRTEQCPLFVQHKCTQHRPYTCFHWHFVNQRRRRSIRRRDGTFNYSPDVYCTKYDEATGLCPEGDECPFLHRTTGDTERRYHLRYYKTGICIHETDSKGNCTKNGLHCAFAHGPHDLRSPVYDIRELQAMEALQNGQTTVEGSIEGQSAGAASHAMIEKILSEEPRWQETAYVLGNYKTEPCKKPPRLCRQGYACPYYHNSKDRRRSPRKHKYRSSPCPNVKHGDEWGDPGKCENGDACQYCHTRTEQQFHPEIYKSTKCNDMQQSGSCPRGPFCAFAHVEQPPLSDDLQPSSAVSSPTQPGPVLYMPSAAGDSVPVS
Setting: RNA with constant flanks, human and mouse sites, ends assumed
| Strand | bound/input enrichment [ratio] |
| --- | --- |
| GGGAGUUCUACAGUCCGACGAUCCAGAACUGUGGCCCGAGUUUCCAAUCUCUGAUUGUGAAGAAGGAGUUCAUUAAAGAUACUCUAGUUAAGCUGCUGAAUCCCAGAUACACCUUACCGCUGGAGACCCAGAACAGAAUCUUGCAACAGAGGAUUGAGCAUCA | 0.115 |
| GGGAGUUCUACAGUCCGACGAUCAGCUUUGCUGAGCCAUCAAGGUCUAAUGGAAGCAUGGUUCGGCAUUCUUCAUCUCCAUAUGUAGUAUAUCCUUCGGAUAAGCCUUUCCUUAAUAGUGAUCUACGACGCUCCCCAAGUAAGCAACAGAGGAUUGAGCAUCA | 0.75 |
| GGGAGUUCUACAGUCCGACGAUCAUCCACAGUCUGAUGGGCAACUUUGAAAACGCUGUGGACUAUUUCCACACAGCUCUUGGUCUCAGGCGAGACGACACAUUUUCUGUUACAAUGCUUGGUCACUGCAUUGAAAUGUACAUCCAACAGAGGAUUGAGCAUCA | 0.138 |

Sample 3 — technique: protein-binding microarray; molecule type: double-stranded DNA, one strand shown; matrix: in vitro; tested at: 2200 nM top; setting: 60-bp whole probe; together with: salmon DNA 0.4 mg/ml; reference: random background probes; direction: higher = stronger binding; shared flanks, not repeated: GCCTAGCAC … GTCTTGATTCGCTTGACGCTGCTG
Target: Interferon regulatory factor 7, full length, phosphomimetic (IRF7, Homo sapiens, UniProt Q92985, residues 1-503, S471D/S472D/S475D/S476D/S477D/S483D/S484D/S487D)
Sequence of UniProt Q92985 (whole entry, unmodified, looked up): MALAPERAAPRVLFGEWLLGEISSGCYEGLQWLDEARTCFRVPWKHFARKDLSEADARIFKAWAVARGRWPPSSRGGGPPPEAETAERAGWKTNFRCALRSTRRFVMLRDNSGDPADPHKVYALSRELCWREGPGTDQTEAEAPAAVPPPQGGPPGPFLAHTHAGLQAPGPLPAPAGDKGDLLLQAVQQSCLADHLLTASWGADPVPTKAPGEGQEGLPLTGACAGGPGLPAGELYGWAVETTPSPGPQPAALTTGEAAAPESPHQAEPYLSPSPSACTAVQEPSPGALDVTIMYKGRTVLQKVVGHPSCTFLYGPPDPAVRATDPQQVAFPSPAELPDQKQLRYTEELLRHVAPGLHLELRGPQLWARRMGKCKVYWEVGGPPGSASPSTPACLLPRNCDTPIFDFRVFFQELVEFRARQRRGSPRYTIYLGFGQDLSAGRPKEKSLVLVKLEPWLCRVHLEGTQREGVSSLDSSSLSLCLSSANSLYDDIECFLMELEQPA
| Strand | fitted relative affinity |
| --- | --- |
| TTAGGTATCCTACGGCTTTAGTGCTAG | 0.0779 z-score |
| TTAGGAATGCTTTTCCTTTAGTGCTAG | 1.03 z-score |
| GACGGTTTCGGTCTCGGGACGTGCTAG | 6.58 z-score |
| TTAGGTTTCGGGTATCGGATAGTGCTA | 6.28 z-score |
| TTAGGTATCGGGTTTCGGGTAGTGCTA | 2.62 z-score |
| TTAGATATCAGGTTCGATTAGTGCTAG | 0.589 z-score |

Single results of other studies
| Molecule | target | assay | system | conditions | how to read | measurement | result |
| --- | --- | --- | --- | --- | --- | --- | --- |
| PhoQ, residues 284 288 289 292 302 303 TYGVAM | PhoP, residues 12 14 15 18 19 HLGGL (Escherichia coli, UniProt P23836) | Sort-seq, refers to: YFP reporter | E. coli | PhoQ-PhoP variant library, together with: 10 µM Mg2+ | reference: high Mg2+ state, higher = stronger signaling | fold induction | 7.32 |

Some of these lines once more (sample 3):
| Strand | fitted relative affinity |
| --- | --- |
| TTAGGAATGCTTTTCCTTTAGTGCTAG | 1.03 z-score |
| GACGGTTTCGGTCTCGGGACGTGCTAG | 6.58 z-score |
| TTAGGTTTCGGGTATCGGATAGTGCTA | 6.28 z-score |
